Published values collected from several papers.
Each numbered part is a random draw from the data of one study; scales do not carry over between parts. Positions count from the first letter of the parent shown.

Block 1
Target: Phosphate system positive regulatory protein PHO4, full length, GST-tagged (PHO4, Saccharomyces cerevisiae, UniProt P07270, residues 1-312)
Technique: competition protein-binding microarray
Molecule type: double-stranded DNA, one strand shown
Medium: in vitro
Tested at: 2 µM
Notes: whole 60-bp probe, lowest competitor level
Added: Cbf1 competitor, 0.05 µM
Direction: higher = stronger binding
Residues (chain): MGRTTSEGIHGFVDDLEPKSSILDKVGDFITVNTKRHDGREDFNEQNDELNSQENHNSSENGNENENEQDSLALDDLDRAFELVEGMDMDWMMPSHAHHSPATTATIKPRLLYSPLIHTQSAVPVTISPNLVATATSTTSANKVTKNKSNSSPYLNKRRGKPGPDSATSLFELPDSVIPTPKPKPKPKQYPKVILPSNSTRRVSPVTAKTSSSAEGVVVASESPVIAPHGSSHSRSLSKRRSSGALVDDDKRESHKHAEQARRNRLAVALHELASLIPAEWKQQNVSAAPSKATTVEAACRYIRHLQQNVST
| Strand | fluorescence intensity [a.u.] |
| --- | --- |
| TAATAAAAATGTTACCACGTTATCAGGGTTTTCATGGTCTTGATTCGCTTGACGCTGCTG | 10000 |
| CGGGGTTAAGTTTTTCACGTGATTTGCTTGCAGCAGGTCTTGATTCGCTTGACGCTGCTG | 10400 |
| GGTGGGGGACCTGTAGTCGTGCCGAGCGATCCGCTTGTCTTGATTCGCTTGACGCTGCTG | 6760 |
| TGCGCAACAACTTGCGGGGTGGGTGTATGTCTAGAAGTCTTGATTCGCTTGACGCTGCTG | 5310 |
| CTTCTGTAAATTTGTAACGTGGGTGGACGCGCCCCGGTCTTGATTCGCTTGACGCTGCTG | 10600 |
| CGGGGTTAAGTTTCCCACGTGTTTTGCTTGCAGCAGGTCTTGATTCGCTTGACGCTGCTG | 16100 |
| CGTAGGGCAATTTTTAGCGTGATGGATAAGGGCGCAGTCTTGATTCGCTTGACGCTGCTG | 3780 |
| TTCTGACGGAGACAGAACGTGGCCGTGTACACTCTTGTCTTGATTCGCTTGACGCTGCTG | 14400 |
| AGCAGCAGAGTCATCTTCGTGCTAAACAGTTGGTACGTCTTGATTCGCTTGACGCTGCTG | 7010 |
| CGTCCTAGTGATTGGCTAGTGGGTGCCATGAGGAAGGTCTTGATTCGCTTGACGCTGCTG | 5870 |
| GCGTTATCTCTATTAGACGTGCTTTTCAAGAATTGTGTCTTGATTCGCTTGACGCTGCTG | 5620 |
| TAATAACAATCTACCCACGTGGTGAAGCAACACCTAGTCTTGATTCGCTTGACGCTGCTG | 20800 |
| AACTAAACCTCTTCGTGCGTGATGGAGTTGGAAACGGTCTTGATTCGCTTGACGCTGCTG | 8090 |
| CATACCCAACCTTGTCACAGGACTTAAGATATTTGTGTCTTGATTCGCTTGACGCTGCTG | 3620 |
| CTCAGTCTCTGGAAAAACGTGCTTTTTAACGGTTATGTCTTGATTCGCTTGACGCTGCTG | 14300 |
| GGCAAGGGGGGGGATGACACGGGCGGCTCTGGTTGGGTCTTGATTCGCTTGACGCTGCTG | 7910 |
| AGCCTCGGAAGTCCAAGCGTGTCCTCCTCGAAAAAGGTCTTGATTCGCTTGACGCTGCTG | 6370 |
| AAATGTTGCTGCATAACCGTGCGATAAAACCTCATAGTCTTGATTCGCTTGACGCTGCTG | 7530 |
| CGGGGTTAAGTTTGGATTGTGGGTGGCTTGCAGCAGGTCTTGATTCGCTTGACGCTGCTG | 4440 |
| CGTCCTAGTGATTTTCACGTGCCGTCCATGAGGAAGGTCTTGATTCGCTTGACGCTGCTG | 15100 |
| CTTCTGTAAATTTTTCACGTGCTATGACGCGCCCCGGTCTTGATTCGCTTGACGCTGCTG | 12300 |
| TGTCACTGGGTTTAGCACGGGTGTCATCAAGCTATGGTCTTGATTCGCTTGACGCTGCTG | 10500 |
| AAATTACTAAGTTTACACGTGTTTTACCCCGTATGAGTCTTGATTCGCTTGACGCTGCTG | 18500 |
| CTTTCCCGATCTTGCTGCGTGGGTGTAGCACATTTGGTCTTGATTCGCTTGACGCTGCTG | 8160 |
| GTCTTGTCTCATTGTCACTACACTTTCCCCACTTCAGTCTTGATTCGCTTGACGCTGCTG | 4050 |

Block 2
Target: ABI1, truncated, D143A, DHFR fusion (Arabidopsis thaliana)
Technique: DHFR PCA, deep sequencing
Medium: yeast
Notes: methotrexate growth selection, single substitutions
Added: (+)-ABA 710 µM
Reference: wild-type fitted maximum
Direction: higher = stronger binding
Parent: PYL1, truncated, DHFR fusion (Arabidopsis thaliana); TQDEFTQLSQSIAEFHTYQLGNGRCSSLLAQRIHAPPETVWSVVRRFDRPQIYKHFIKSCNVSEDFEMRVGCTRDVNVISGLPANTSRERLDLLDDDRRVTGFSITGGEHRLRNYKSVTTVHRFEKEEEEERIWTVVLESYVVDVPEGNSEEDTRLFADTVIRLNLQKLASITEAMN
| Change | relative binding score [%] |
| --- | --- |
| V62N | 73.1 |
| S87V | 76 |
| P146M | 64.8 |
| N149W | 13.1 |
| N77T | 103 |
| E129Y | 106 |
| E127L | 108 |
| V100H | 89.4 |
| K58F | 84.5 |
| Y115H | 17.5 |
| R74Q | -25.3 |
| Q19S | 105 |
| K54N | 35.1 |
| D95L | 101 |
| W41M | 1.92 |
| I33Y | 26.2 |
| S140N | 7.39 |
| E152Q | 99.7 |
| D92R | 73 |
| L138S | 25.3 |
| L8W | 99.7 |
| E128T | 113 |
| E125L | 107 |
| T119L | 106 |

Block 3
Target: Histone acetyltransferase KAT6A, winged helix 1, GST fusion (KAT6A, Homo sapiens, UniProt Q92794, residues 1-85)
Technique: protein binding microarray
Molecule type: double-stranded DNA, one strand shown
Medium: in vitro
Tested at: not given
Notes: 8-mer, flanks averaged, mean of 2 arrays, mostly near background
Reference: not given
Direction: higher = stronger binding
Construct (chain): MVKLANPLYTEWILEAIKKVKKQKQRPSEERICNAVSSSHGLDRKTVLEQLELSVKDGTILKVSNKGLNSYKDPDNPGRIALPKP
| Strand | E-score |
| --- | --- |
| AATATTCA | -0.0339 |
| GATATGAC | -0.0383 |
| ACGATGCG | 0.133 |
| ACCCCCCA | -0.266 |
| ACTCTGAG | -0.18 |
| TAAGGAAA | -0.233 |
| ACGGCTCT | 0.291 |
| CCGTTTCC | 0.169 |
| GCCTCTTA | -0.151 |
| CGTGACCA | -0.0023 |
| AGTATATC | -0.132 |
| ATAAGGGC | -0.158 |
| CGGATCTC | 0.0686 |
| GTCAGCGA | 0.148 |
| AATCGCTC | 0.0271 |
| ATTGACTG | -0.168 |
| ACTCTAAC | -0.0977 |
| ACCAATCG | -0.0866 |
| GGATTCAA | -0.186 |
| CGGCACCG | 0.391 |
| CTGTCGGA | -0.023 |
| CTCTGGCC | -0.136 |
| CTCATGAG | -0.114 |
| ATTTCGAC | 0.0338 |
| CCGTTCGA | 0.029 |

Block 4
Target: CCNE2, cyclin fold, Cln2 fusion (human)
Technique: yeast growth competition, sequencing
Medium: yeast
Notes: strong parent motif
Reference: not given
Direction: higher = stronger binding
Parent: E2F1 docking peptide (human); PPVKRRLDFETDH
| Change | normalised enrichment score |
| --- | --- |
| PPVKRRLDFRTDH [E10R] | 6.1 |
| PPVERRLDFETDH [K4E] | 0.636 |
| PPVKRRLDRETDH [F9R] | 0.323 |
| PPVKRYLDFETDH [R6Y] | 1.2 |
| PPVKRRLDFWTDH [E10W] | 4.81 |
| PPVKVRLDFETDH [R5V] | 0.268 |
| PPVKRRLDFETLH [D12L] | 6.52 |
| PPVKHRLDFETDH [R5H] | 0.0353 |
| PPVKRRKDFETDH [L7K] | 0.162 |
| PPVKRRLDDETDH [F9D] | 0.194 |
| PPVKRRLDPETDH [F9P] | 0.133 |
| PPVKFRLDFETDH [R5F] | -0.0356 |
| PPVKRRLDFETRH [D12R] | 6.59 |
| PYVKRRLDFETDH [P2Y] | 4.58 |
| PPVKRRLDFPTDH [E10P] | 5.02 |
| PPVKRRLDFVTDH [E10V] | 5.73 |
| PPVKRLLDFETDH [R6L] | 1.74 |
| PPVSRRLDFETDH [K4S] | 3.41 |

Block 5
Target: Sal-like protein 4, full length isoform B (SALL4, Homo sapiens, UniProt Q9UJQ4-2, residues 1-616)
Technique: universal PBM
Molecule type: double-stranded DNA, one strand shown
Medium: in vitro
Tested at: not given
Notes: 8-mer, flanks averaged, mean of replicates
Direction: higher = stronger binding
| Strand | E-score |
| --- | --- |
| GCACGGCA | -0.0639 |
| GGGAACCC | -0.308 |
| ATCCAGGG | -0.136 |
| GAGGCAAC | -0.183 |
| TCGTCCCA | -0.0754 |
| ACAAAGTC | -0.0943 |
| ACTTTCAA | 0.201 |
| GACACCGC | -0.286 |
| CCAAAGCA | -0.0382 |
| ACTACACT | 0.133 |
| GCATATAC | 0.157 |
| GAGGCATA | 0.0907 |
| CGCCCAAA | -0.00626 |
| AACTTAAG | 0.0964 |
| AACAACTA | 0.138 |
| CATCACGG | -0.0777 |
| GTCACGCA | -0.115 |
| AGATGTTG | -0.104 |
| AGCCGACC | -0.281 |
| ATTGAATC | 0.213 |
| GATTCGCC | -0.0611 |
| AACTGGAA | 0.00328 |
| AGCCCTAA | 0.0222 |
| CCCGGGCA | -0.253 |
| AACCGAGT | -0.193 |

A few entries again (block 5):
| Strand | E-score |
| --- | --- |
| ACTTTCAA | 0.201 |
| GACACCGC | -0.286 |
| CCAAAGCA | -0.0382 |
| ACTACACT | 0.133 |
| GCATATAC | 0.157 |
| GAGGCATA | 0.0907 |
| CGCCCAAA | -0.00626 |
| AACTTAAG | 0.0964 |
| AACAACTA | 0.138 |
| CATCACGG | -0.0777 |
| GTCACGCA | -0.115 |
| AGATGTTG | -0.104 |
| AGCCGACC | -0.281 |
| ATTGAATC | 0.213 |
| GATTCGCC | -0.0611 |
| AACTGGAA | 0.00328 |
| AGCCCTAA | 0.0222 |
